Measurements gathered from unrelated publications.
Each numbered part is a random draw from the data of one study; scales do not carry over between parts.

Block 1 — method: protein binding microarray; form: double-stranded DNA, one strand shown; matrix: in vitro; tested at: not given; reference: not given; reading: higher = stronger binding; measurement: E-score
Target: Histone acetyltransferase KAT6A, winged helix 2, GST fusion (KAT6A, Homo sapiens, UniProt Q92794, residues 85-181)
Setting: 8-mer, flanks averaged, mean of 2 arrays, mostly near background
Residues (chain): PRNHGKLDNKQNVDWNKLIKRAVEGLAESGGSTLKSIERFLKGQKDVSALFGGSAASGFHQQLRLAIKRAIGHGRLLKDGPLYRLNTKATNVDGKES
CACTTTGC: 0.0566
ATGGAAGG: 0.0524
GATTAACA: 0.0835
CGGCTTGA: 0.117
TAAGGGGA: -0.147
CGAATACG: 0.00499
TGACGGAA: -0.0705
GTATTAGA: 0.0261
TGAATCAA: 0.196
ACATGCAT: -0.129
ACGATACA: -0.0205
GCCGACGA: 0.109
TAAAGCCA: -0.0841
ATCGGTTA: 0.0314
ACCATTTA: -0.0328
CAAGTAAG: -0.0542
AACCGAGC: 0.147
ACGTTCGG: -0.275
ATTAAGTG: 0.11
CATCAATG: -0.162
CGTCTGTA: 0.00569
ATCGTCAC: 0.0622
CCTCTAAC: -0.0882
CCGAGCCA: 0.0131
AAGTGGTG: -0.0704

Block 2 — method: RNA Bind-n-Seq; form: RNA; matrix: in vitro; tested at: 1 µM; setting: whole 134-nt RNA, ends assumed; together with: 150 mM KCl; reference: input library; reading: higher = stronger binding; measurement: log2 enrichment
Target: Ras GTPase-activating protein-binding protein 1, C-terminal RGG region (G3BP1, Homo sapiens, UniProt Q13283)
UniProt Q13283, sequence (whole entry, looked up): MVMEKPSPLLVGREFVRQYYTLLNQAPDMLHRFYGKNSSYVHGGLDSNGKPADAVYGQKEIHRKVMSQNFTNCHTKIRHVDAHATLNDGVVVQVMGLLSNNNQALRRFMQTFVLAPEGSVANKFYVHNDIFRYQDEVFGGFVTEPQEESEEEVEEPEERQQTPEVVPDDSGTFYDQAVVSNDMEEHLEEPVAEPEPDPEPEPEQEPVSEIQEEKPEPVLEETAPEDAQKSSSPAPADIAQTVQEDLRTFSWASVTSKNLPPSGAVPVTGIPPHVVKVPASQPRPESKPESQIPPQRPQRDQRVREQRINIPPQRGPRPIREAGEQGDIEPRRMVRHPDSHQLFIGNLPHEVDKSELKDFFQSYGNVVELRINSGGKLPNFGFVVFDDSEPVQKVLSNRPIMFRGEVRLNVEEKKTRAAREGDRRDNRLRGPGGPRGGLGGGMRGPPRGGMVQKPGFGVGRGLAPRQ
Shared flanks, not repeated: GGGAGUUCUACAGUCCGACGAUC … UGGAAUUCUCGGGUGUCAAGG
CAAGUCCUGUGCUACACAUCGUAUGUACCGAAUCGGGAAAAGGAAAAGGAAAAGGAAAGUAUUAUGUUACGCCGUUCGGAUCUGCACUUC: -1.84
UUUCUCUCACCAGGUACCAGGUCAUCAGUACACCAUCUGAUAUUUUCAUGGUGAUGGAAUAUGUCUCAGGAGGAGAGCUAUUUGAUUAUA: -1.15
UGGGAGGUGGAUUUUGUUUAUUUUUUUAGAUCAUUUCCAGGGGUGGGAAUUUUUUUUUAAUAUGUGUCAUGAAUAAAGUUGUUUUUGAAA: 3.9
CACAGACAACACGCACCCACACAGACACAGAGGGAAGGGGCUGGGAUGGGGACAGGGUGCACAGCAGGGCGGGGUAGGACCCCAGCCCCU: -0.46
UUCCUCAAGUCCUGUGCUACACAUCGUAUGUACCGAAUCGGAGGAGGAGGAAAGUAUUAUGUUACGCCGUUCGGAUCUGCACUUCCAGCA: -1.63
CACAGACAACACGCACCCACACAGACACAGAGGGAAGGAGUUGGGAUGGGGACAGGGUGCACAGCAGGGCGGGGUAGGACCCCAGCCCCU: -0.717
UGGGAAGUGGAUUUUGUUUAUUUUUUUAGCUCAUUUCCAGGGGUGGGAAUUUUUUUUUAAUAUGUGUCAUGAAUAAAGUUGUUUUUGAAA: 3.25
UGGGAGGUGGAUUUUGUUUAUUUUUUUAGCUCAUUUCCAGGGGUGGGAAUUUUUUUUUAAUAUGUGUCAUGAAGAAAGUUGUUUUUGAAA: 1.39
AGUCCUGUGCUACACAUCGUAUGUACCGAAUCGGGUUUUUUUGGGUUUUUGGGAGGGAAAGUAUUAUGUUACGCCGUUCGGAUCUGCACU: 0.402
GUCCUGUGCUACACAUCGUAUGUACCGAAUCGGCCCCCGGGGCCCCCGGGGCCCCCGGAAAGUAUUAUGUUACGCCGUUCGGAUCUGCAC: -1.17

Block 3 — method: RNA Bind-n-Seq; form: RNA; matrix: in vitro; tested at: not given; reference: input RNA pool; reading: higher = stronger binding; measurement: bound/input enrichment
Target: RING finger protein unkempt homolog, zinc fingers 1-6, GST-SBP tag (UNK, Homo sapiens, UniProt Q9C0B0, residues 30-357)
UniProt Q9C0B0, sequence (30-357, looked up): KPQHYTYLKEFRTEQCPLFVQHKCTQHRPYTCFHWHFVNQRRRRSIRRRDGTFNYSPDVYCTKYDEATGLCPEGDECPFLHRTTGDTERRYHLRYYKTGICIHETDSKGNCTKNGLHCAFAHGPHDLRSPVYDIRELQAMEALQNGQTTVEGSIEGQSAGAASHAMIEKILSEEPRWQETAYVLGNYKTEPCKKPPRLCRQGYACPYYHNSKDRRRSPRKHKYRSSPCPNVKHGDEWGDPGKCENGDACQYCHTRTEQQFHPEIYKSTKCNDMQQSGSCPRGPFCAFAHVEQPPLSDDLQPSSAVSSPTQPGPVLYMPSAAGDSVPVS
Setting: RNA with constant flanks, human and mouse sites, ends assumed
Shared flanks, not repeated: GGGAGUUCUACAGUCCGACGAUC … CAACAGAGGAUUGAGCAUCA
UCUUUAUUCCUUCCUUUUCCUUUUUUUCUUUUUUUUUUCUUUUUUUUUUUUUUUUUUUGGUAGUUGUUGUUACCCACGCCAUUUUACGUCUCCUUCACUGAAGGGCUAGAGUUUUAACUU: 0.661 ratio
GCAACUCUCAUCUUCUUCCUUCUGGCACAAGUCUCUUGGGCUGGACCAUUUGAACAGAGAGGCUUAUUUGACUUCAUGCUAGAAGAUGAGGCUUCUGGCAUAAUCCCUUAUGACCCUGAC: 0.151 ratio
CCAGGCCAGUGUGGCAGAGCAGACGGCUAUGUGCUCGAAGGCAAGGAGCUGGAGUUCUAUCUGCGGAAGAUCAAAGCCCGGAAAGGCAAAUGAGCCUCAUGUGUAGUGUAAUAAAGGUGU: 3.62 ratio
GGCAUUAAAAAAGUCAGAUCUAUUCCCAAGAACAUCACCGUUGUGUCAGGCACAGACCUGGUCCUACCCUGCCACCUCUCGUCCAAUUUGGCCCAUGCCCACUGGACCUUCGGAAGCCAG: 0.165 ratio
ACGUCCUUGGCAUGGCACCCGACUCAUCCCAGUACCCUGGCUGUGGGCUCCAAAGGGGGAGAUAUUAUGAUCUGGAACUUUGGCAUCAAGGACAAACCUAUCUUCCUUAAAGGGAUUGGA: 0.28 ratio
UUUCACCUUCUCCCGGGUCAGCACACACAGAUUUGGGAGUAUUUACCUGCACAGAACGCACCUUCAGGAACUGCCAACCAGAAGCAAAAUCCAAAGCUGCUCUCUGCGAUCCCUUCACUU: 0.159 ratio
GUAAAAAAGGACAAUAUUCUUGUUCGAUCUUUCAAAGAUGGAAAAUUUACUUCAGUUCCAAGAAAAGAUGUCCAUGAAAUUACUAGUGACACUGCACCAAAGCCUGAUGCUGUUUUAAAG: 0.302 ratio
CUUAUGGCUGCAGAAACAGGAAGUGGCAAAACUGGUGCUUUUAGUAUUCCAGUUAUCCAGAUAGUUUAUGAAACUCUGAAAGACCAACAGGAAGGCAAAAAAGGAAAAACAACAAUUAAA: 0.632 ratio
UGUGGCUGAGGACUUUGUACAUUGUUUUGUUUUUUUUUUUUUUUGGUUUUGUCUUUUUUUAAUAGUCAUUCCAAGUAUCCAUGAAAUAAGUGGUUACAGGAAGUCCCUCACCCUCCCAAA: 2.93 ratio
AUGCAGUGGCUCGGGAGGCACACAGAUCCUGAAGGAAUCAUAAAAUCCAGCAAGCUCUCCCUUCAGUUUGUUUCCUCCUACACAUCUGAAGCGGAGAUCACCCCGUCUUCCAUGCCUGUG: 0.227 ratio
GCAGUUCGCAGAACAGAAACUGGACGCAUCGGAUUAGAAGGCUGCCUUUGUCAAGACUUUUAUAGGAUACGAGACCUUUUAUAUGAACAGUAUGCCAUUGUGUAAAGGACAUGAUGUCAA: 0.182 ratio

Block 4 — method: universal PBM; form: double-stranded DNA, one strand shown; matrix: in vitro; tested at: not given; reading: higher = stronger binding; measurement: E-score
Target: Sal-like protein 4, full length isoform B (SALL4, Homo sapiens, UniProt Q9UJQ4-2, residues 1-616)
Setting: 8-mer, flanks averaged, mean of replicates
GGAAGTGA: -0.0779
AACACTGA: 0.0887
CCGAGTAA: 0.0685
AGGGTCTC: -0.146
ATGGGAGA: 0.0748
CGAACCGA: -0.112
CGATGAAC: -0.0922
AGTGCTTC: -0.113
CGCGGATA: -0.00533
GATGATTA: 0.143
ACCGATCC: -0.264
GGAGCTAA: -0.166
CCATCTCA: -0.159
GCGCGTCA: -0.14
AGTCCCAG: -0.236
ACATAGCG: 0.177
GGTTAACC: -0.192
CTCTAAGA: -0.0658

A few entries again (block 1):
CATCAATG: -0.162
TAAAGCCA: -0.0841
ATCGTCAC: 0.0622
CAAGTAAG: -0.0542
